Measured values gathered from unrelated publications.
Lines come from different studies, so protocols differ.
FGFR3 isoform IIIc: FGFR3 isoform IIIc (unknown, UniProt Q61851)
Chain of UniProt Q61851 (whole entry, looked up): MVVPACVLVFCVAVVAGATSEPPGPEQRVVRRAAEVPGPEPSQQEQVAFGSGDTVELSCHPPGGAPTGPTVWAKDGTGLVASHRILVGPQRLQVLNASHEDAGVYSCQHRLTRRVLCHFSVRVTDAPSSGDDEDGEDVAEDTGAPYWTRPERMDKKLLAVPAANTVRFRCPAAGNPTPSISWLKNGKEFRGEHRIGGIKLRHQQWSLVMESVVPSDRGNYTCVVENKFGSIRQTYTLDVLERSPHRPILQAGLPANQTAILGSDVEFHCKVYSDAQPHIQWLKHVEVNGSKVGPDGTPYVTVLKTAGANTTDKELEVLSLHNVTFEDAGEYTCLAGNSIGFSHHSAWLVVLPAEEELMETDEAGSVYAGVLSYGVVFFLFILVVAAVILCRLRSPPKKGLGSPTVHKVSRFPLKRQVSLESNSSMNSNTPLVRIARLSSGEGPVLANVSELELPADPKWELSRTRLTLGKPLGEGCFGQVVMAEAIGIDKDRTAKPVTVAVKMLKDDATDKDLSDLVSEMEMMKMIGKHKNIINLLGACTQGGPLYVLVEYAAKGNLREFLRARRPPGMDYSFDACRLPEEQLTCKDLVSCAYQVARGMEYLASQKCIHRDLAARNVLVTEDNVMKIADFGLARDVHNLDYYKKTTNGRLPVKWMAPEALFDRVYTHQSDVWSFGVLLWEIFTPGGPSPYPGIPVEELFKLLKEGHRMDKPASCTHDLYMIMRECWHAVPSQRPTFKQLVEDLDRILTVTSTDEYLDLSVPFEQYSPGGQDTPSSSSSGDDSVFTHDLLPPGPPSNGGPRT
B1: FGF6 (Homo sapiens, UniProt P10767); chain SPAGTRANNTLLDSRGWGTLLSRSRAGLAGEIAGVNWESGYLVGIKRQRRLYCNVGIGFHLQVLPDGRISGTHEENPYSLLEISTVERGVVSLFGVRSALFVAMNSKGRLYATPSFQEECKFRETLLPNNYNAYESDLYQGTYIALSKYGRVKRGSKVSPIMTVTHFLPRI
B2: NRD1 6-151 (Saccharomyces cerevisiae, UniProt P53617); sequence looked up; chain DFQNFVATLESFKDLKSGISGSRIKKLTTYALDHIDIESKIISLIIDYSRLCPDSHKLGSLYIIDSIGRAYLDETRSNSNSSSNKPGTCAHAINTLGEVIQELLSDAIAKSNQDHKEKIRMLLDIWDRSGLFQKSYLNAIRSKCFA
B3: TIMP3 24-144 (Homo sapiens, UniProt P35625); sequence looked up; chain CTCSPSHPQDAFCNSDIVIRAKVVGKKLVKEGPFGTLVYTIKQMKMYRGFTKMPHVQYIHTEASESLCGLKLEVNKYQYLLTGRVYDGKMYTGLCNFVERWDQLTLSQRKGLNYRYHLGCN
B4: L3MBTL3 1-197 (Homo sapiens, UniProt Q96JM7-2); sequence looked up; chain MTESASSTSGQEFDVFSVMDWKDGVGTLPGSDLKFRVNEFGALEVITDENEMENVKKATATTTWMVPTAQEVFSEKTGMPFRLKDPVKVEGLQFCENCCQYGNVDECLSGGNYCSQNCARHIKDKDQKEERDVEEDNEEEDPKCSRKKKPKLSLKADTKEDGEERDDEMENKQDVRILRGSQRARRKRRGDSAVLKQ
Chain of UniProt P55075 (whole entry, looked up): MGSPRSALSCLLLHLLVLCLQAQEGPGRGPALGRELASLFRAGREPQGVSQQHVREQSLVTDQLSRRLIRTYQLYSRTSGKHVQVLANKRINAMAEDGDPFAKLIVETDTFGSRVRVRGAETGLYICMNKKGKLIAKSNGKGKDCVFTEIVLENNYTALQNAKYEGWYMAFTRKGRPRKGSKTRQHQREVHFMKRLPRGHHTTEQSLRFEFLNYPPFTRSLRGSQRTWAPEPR
Chain of UniProt P31266 (whole entry, unmodified, looked up): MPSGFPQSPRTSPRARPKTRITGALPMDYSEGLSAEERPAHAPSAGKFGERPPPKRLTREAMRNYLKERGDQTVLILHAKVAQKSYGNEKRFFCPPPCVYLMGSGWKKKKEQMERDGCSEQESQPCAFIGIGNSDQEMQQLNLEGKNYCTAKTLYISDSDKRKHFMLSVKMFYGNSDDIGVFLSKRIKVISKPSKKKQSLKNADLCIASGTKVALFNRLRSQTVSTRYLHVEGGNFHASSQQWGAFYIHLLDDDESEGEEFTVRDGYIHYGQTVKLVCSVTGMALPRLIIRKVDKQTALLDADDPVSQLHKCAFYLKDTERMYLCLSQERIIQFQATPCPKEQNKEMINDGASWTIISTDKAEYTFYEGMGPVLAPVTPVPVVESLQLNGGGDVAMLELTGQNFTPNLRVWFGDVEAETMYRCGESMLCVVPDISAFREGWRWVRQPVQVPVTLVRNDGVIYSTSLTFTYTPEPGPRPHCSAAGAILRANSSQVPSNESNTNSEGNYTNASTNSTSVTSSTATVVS
Chain of UniProt P12259 (whole entry, unmodified, looked up): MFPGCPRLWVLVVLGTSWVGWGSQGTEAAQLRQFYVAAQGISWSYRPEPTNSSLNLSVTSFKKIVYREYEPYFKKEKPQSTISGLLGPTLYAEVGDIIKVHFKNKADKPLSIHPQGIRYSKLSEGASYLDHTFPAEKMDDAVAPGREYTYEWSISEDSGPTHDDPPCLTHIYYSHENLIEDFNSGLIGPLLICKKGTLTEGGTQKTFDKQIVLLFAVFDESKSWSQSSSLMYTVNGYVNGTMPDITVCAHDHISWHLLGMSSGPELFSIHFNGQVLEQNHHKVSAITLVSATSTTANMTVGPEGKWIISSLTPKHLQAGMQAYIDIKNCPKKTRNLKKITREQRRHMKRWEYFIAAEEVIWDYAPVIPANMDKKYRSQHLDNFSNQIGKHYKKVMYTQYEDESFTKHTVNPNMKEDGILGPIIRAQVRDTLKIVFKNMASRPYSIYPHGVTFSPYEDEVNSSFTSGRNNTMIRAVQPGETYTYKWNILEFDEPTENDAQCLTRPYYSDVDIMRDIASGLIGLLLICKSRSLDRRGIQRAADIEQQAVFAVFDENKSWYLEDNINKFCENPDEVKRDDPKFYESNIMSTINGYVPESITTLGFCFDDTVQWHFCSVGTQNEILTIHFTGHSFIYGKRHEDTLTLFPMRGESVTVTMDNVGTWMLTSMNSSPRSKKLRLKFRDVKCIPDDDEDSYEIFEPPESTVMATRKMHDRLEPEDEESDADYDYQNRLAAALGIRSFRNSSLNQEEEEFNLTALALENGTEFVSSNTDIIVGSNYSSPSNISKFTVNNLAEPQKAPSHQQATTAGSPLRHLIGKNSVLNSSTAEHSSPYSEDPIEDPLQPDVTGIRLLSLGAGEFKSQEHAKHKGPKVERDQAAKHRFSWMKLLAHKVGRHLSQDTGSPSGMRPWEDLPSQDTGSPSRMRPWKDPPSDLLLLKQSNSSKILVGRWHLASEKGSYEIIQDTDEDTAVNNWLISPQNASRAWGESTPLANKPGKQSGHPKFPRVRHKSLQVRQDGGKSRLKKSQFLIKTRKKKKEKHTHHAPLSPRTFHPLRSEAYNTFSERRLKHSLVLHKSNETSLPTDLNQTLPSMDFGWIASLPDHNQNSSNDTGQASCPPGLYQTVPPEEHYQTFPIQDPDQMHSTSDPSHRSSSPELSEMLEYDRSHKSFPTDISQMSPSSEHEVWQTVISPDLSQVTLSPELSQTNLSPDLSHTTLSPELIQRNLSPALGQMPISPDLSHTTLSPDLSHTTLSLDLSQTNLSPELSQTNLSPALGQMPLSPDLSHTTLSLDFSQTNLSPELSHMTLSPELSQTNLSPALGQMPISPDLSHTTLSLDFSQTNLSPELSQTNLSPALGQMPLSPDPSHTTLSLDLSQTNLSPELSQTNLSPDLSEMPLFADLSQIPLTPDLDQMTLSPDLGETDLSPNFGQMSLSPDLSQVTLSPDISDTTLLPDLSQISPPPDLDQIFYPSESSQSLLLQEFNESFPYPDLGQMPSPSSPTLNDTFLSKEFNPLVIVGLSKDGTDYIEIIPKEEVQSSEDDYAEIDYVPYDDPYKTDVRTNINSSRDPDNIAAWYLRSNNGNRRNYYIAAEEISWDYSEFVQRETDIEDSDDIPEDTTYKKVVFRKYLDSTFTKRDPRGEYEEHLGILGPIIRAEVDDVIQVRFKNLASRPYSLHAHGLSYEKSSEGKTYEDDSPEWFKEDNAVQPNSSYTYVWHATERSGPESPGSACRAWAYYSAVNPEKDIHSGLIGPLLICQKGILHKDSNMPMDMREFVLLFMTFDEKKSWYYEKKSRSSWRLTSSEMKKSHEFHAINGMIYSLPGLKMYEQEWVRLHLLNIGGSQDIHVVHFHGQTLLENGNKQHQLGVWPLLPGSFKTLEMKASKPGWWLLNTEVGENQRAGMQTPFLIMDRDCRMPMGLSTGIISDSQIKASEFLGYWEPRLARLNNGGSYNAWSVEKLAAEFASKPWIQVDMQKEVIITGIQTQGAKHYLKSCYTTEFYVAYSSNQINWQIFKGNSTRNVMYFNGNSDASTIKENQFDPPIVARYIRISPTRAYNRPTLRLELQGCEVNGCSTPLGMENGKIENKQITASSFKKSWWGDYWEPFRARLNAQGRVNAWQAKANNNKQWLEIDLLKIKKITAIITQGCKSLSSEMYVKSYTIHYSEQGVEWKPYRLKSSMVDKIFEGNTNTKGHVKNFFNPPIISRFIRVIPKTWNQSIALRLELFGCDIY
Chain of UniProt P70618 (whole entry, unmodified, looked up): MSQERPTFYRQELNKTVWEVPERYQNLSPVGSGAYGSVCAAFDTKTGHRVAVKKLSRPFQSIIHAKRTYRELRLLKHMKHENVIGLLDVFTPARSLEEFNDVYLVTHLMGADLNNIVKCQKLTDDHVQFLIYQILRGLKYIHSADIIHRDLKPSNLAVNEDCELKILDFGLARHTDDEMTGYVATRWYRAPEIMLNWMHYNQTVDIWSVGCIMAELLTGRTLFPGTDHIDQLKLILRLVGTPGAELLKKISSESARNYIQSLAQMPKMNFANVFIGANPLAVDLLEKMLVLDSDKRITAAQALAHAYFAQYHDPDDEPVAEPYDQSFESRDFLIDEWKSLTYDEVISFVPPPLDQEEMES
Chain of UniProt Q5SKM8 (whole entry, looked up): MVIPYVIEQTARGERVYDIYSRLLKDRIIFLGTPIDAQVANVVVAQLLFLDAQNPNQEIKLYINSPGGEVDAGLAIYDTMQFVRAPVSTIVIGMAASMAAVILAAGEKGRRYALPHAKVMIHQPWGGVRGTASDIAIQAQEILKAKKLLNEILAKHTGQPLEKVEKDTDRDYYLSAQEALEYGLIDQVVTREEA
Chain of UniProt P0A6A8 (whole entry, looked up): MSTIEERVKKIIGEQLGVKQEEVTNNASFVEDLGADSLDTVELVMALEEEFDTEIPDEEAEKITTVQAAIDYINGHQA

| Substance | tested on | test | system | setting | how to read | endpoint | result |
| --- | --- | --- | --- | --- | --- | --- | --- |
| FGF2 fragment C78S/C96S, C-terminal KCK, vcMMAE on Cys (Homo sapiens) | FGFR1 extracellular domain, Fc fusion 22-376 (UniProt P11362) | cell viability, Alamar Blue | BJ | 96 h |  | EC50 | 0.329 µM |
| FGF8b (Homo sapiens) | FGFR3 isoform IIIc | cell proliferation, MTT | BaF3-FGFR3c | 20 nM, 48 h, together with: unmodified decamer 4.9 µg/mL | relative to: FGF 1 with heparin, higher = more proliferation | cell proliferation | 13% |
| haspin GFP fusion (Xenopus laevis) | TOP2A/SUMO2 CTD 1222-1579, SUMO2-conjugated lysines (Xenopus laevis) | pull-down | interphase egg extract |  | relative to: mitotic Haspin-GFP, higher = less abundant | relative abundance | 73% |
| FXR1 (Homo sapiens, UniProt P51114) | GFP-GAPDH/TDRD3 fusion (Homo sapiens) | FXR1 enrichment, co-IP |  |  | relative to: single domain, higher = stronger binding | affinity increase | 20 fold |
| UGT1A9 (Homo sapiens, UniProt O60656) | COc1cc(-c2oc3cc(O)ccc3c(=O)c2O)ccc1O | steady-state kinetics |  | pH 7.4, 37 °C |  | Vmax/Km | 4000 µL/min/mg |
| F9 mature, Gla residues (Homo sapiens, UniProt P00740) | F11 activated I183A/R184A/D185A (Homo sapiens) | fIX cleavage after Arg145, steady-state kinetics |  | KinTek fit |  | Km | 10 µM |
| B1 (FGF6) | FGFR3 isoform IIIc | cell proliferation, MTT | BaF3-FGFR3c | 20 nM, 48 h, together with: chondroitin sulfate E 4.9 µg/mL | relative to: FGF 1 with heparin, higher = more proliferation | cell proliferation | 3% |
| HMGN2 K30C, succinyl-lysine analogue at 30 | H2A/H2B/H3/H4/Widom 601 DNA nucleosome (Xenopus laevis) | ITC |  | 450 µM, KCl 10 mM | relative to: unmodified HMGN2, higher = weaker binding | relative Kd | 4 fold |
| YANQLKFRKKKLKFCK (SETD1B D-site peptide (Homo sapiens)) | Mapk14 N159K/E160S/E163T, pT180, pY182 (Rattus norvegicus, UniProt P70618) | kinase activity, inhibitor, competitive kinase inhibition assay | peptide | together with: ATP 1 mM |  | IC50 | 30 µM |
| B2 (NRD1 6-151) | Sen1 2053-2064 Y2058F, 5-FAM label (Saccharomyces cerevisiae) | fluorescence polarisation |  |  | relative to: wild-type NIM2, higher = weaker binding | fold increase in Kd | 30 fold |
| GLP-2 mature, D-Ala4, C-terminal amide | GLP2R (Homo sapiens, UniProt O95838) | cAMP, agonist |  |  | relative to: GLP-2, higher = more cAMP | relative cAMP production | 101% |
| pasireotide, D-Trp, Tyr(4-Bzl) | SSTR1 M141Q (Homo sapiens, UniProt P30872) | cAMP inhibition, FRET Epac sensor | HEK 293T |  | relative to: wild-type SSTR1, higher = greater potency | potency of cAMP inhibition | > 10 fold |
| FGF8 (Homo sapiens, UniProt P55075) | FGFR3 isoform IIIc | cell proliferation, MTT | BaF3-FGFR3c | 20 nM, 48 h, together with: heparan sulfate 4.9 µg/mL | relative to: FGF 1 with heparin, higher = more proliferation | cell proliferation | 103% |
| clpX fragment (Thermus thermophilus) | clpP 1-194 (Thermus thermophilus, UniProt Q5SKM8) | peptidase activity, activator |  | apo |  | half-maximal activation ratio | 6.5 ClpX6/ClpP14 ratio |
| F8 A2 subunit D666S (human) | F8 A1 and A3C1C2 dimer, factor VIIIa | FXa generation activity loss |  | 1.5 nM, 23 °C | higher = faster decay | decay rate | 0.49 min⁻¹ |
| TFPI endogenous, on cells (Homo sapiens, UniProt P10646) | F10 factor Xa | factor Xa inhibition | HUVEC | 100 µg/mL total protein, final, methyl-β-cyclodextrin |  | free factor Xa | 0.046 nM |
| fabF K128A (Escherichia coli) | acpP C12-acylated 1-78, C12 acyl on 4'-phosphopantetheine (Escherichia coli, UniProt P0A6A8) | holo-AcpP formation, HPLC |  | 10 µM, together with: malonyl-CoA |  | condensation rate | 2.34 min⁻¹ |
| TFPI (Homo sapiens, UniProt P10646-1) | F5 B-domain deleted 811-1490 R709Q/R1545Q (UniProt P12259) | thrombin generation inhibition, inhibitor |  | no heparin |  | IC50 | 0.0068 µM |
| Pfa1 G-patch (Chaetomium thermophilum) | RNA helicase (Thermochaetoides thermophila, UniProt G0RY84) | RNA unwinding, activator |  |  |  | unwinding rate constant | 4.6 min⁻¹ |
| CLSTAADMQGVVTDGMASGLDKDYLKPDD (azu residues 50-77) | TP63 DBD 127-323 (Homo sapiens) | atomic force spectroscopy | peptide | pH 7.5, NaCl 150 mM |  | kon | 17000 M⁻¹ s⁻¹ |
| MMP2 fragment R252A/F297A/R368A (Homo sapiens) | COL1A1/COL1A2 denatured, gelatin (Homo sapiens) | DQ-gelatin fluorescence |  | 10 nM, 25 °C | higher = faster hydrolysis | hydrolysis rate | 0.029 RFU/s |
| B3 (TIMP3 24-144) | MMP3 100-272 (Homo sapiens, UniProt P08254) | inhibitor, steady-state kinetics |  | 1 h, 37 °C, apparent, tight-binding fit |  | Ki | 0.0091 µM |
| Ac-GRPCG-NH2 (PTX3 100-104 A100G/A104G, N-acetyl/C-terminal amide (Homo sapiens); N-acetyl/C-terminal amide) | FGF2 18 kD form (Homo sapiens) | cell proliferation, antagonist | peptide, GM7373 | 3-1000 µM, together with: FGF2 0.55 nM |  | ID50 | 1000 µM |
| B4 (L3MBTL3 1-197) | Rbpj 53-474 (Mus musculus, UniProt P31266) | ITC |  | pH 6.5, 25 °C, NaCl 150 mM |  | ΔH | -7.2 kcal/mol |
| E2F2 transactivation domain D410H (Homo sapiens) | RBL1 391-972 del601-779/del888-923 (Homo sapiens, UniProt P28749) | ITC |  |  | relative to: wild-type E2F2 TD, higher = tighter binding | relative affinity | 3 fold |

Some of these lines once more:
| Substance | tested on | test | system | setting | how to read | endpoint | result |
| --- | --- | --- | --- | --- | --- | --- | --- |
| UGT1A9 (Homo sapiens, UniProt O60656) | COc1cc(-c2oc3cc(O)ccc3c(=O)c2O)ccc1O | steady-state kinetics |  | pH 7.4, 37 °C |  | Vmax/Km | 4000 µL/min/mg |
| B3 (TIMP3 24-144) | MMP3 100-272 (Homo sapiens, UniProt P08254) | inhibitor, steady-state kinetics |  | 1 h, 37 °C, apparent, tight-binding fit |  | Ki | 0.0091 µM |
| FGF2 fragment C78S/C96S, C-terminal KCK, vcMMAE on Cys (Homo sapiens) | FGFR1 extracellular domain, Fc fusion 22-376 (UniProt P11362) | cell viability, Alamar Blue | BJ | 96 h |  | EC50 | 0.329 µM |
